Measurements from different studies.
Parts stem from different laboratories: compare values within a part only. Substitutions count along the parent as printed.

Study 1
Target: CCNE1, cyclin fold, Cln2 fusion (human)
Method: yeast growth competition, sequencing
Matrix: yeast
Notes: strong parent motif
Reference: not given
Direction: higher = stronger binding
Starting sequence: DTL docking peptide (human); PSSMRKICTYFHR
Substitution	normalised enrichment score
PSSARKICTYFHR [M4A]	0.702
PSSMRAICTYFHR [K6A]	0.923
PSSMRKACTYFHR [I7A]	0.404
PSAMRKICTYFHR [S3A]	0.646
PSSMRKICTYFHA [R13A]	1.19
PSSMRKIATYFHR [C8A]	0.297

Study 2
Target: Histone acetyltransferase KAT6A, both winged helices, GST fusion (KAT6A, Homo sapiens, UniProt Q92794, residues 1-181)
Method: protein binding microarray
Form: double-stranded DNA, one strand shown
Matrix: in vitro
Tested at: not given
Notes: 8-mer, flanks averaged, mean of 2 arrays, mostly near background
Reference: not given
Direction: higher = stronger binding
Construct (chain): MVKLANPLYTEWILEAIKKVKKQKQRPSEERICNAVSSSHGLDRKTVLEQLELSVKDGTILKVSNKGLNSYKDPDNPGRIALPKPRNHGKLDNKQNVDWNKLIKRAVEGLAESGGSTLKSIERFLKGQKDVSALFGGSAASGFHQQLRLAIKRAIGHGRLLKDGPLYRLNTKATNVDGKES
Sequence	E-score
ATGAAACG	0.0762
ACGGATCG	0.191
CTTTCAAC	-0.0384
CTGCTAAA	-0.102
CCGAAGAA	-0.0429
CGATCGCC	0.311
CCCCCGTA	0.0417
CCGACTAC	0.192
ATGCCGCG	0.369
GCCATCCA	-0.0233
CCCTTAGA	-0.306
AGGGTTGC	-0.163
GAAGGTTA	-0.00928
CGCACGTC	0.146
CGTTTTAG	0.0157

Study 3
Target: Interferon regulatory factor 7, full length, phosphomimetic (IRF7, Homo sapiens, UniProt Q92985, residues 1-503, S471D/S472D/S475D/S476D/S477D/S483D/S484D/S487D)
Sequence of UniProt Q92985 (whole entry, unmodified, looked up): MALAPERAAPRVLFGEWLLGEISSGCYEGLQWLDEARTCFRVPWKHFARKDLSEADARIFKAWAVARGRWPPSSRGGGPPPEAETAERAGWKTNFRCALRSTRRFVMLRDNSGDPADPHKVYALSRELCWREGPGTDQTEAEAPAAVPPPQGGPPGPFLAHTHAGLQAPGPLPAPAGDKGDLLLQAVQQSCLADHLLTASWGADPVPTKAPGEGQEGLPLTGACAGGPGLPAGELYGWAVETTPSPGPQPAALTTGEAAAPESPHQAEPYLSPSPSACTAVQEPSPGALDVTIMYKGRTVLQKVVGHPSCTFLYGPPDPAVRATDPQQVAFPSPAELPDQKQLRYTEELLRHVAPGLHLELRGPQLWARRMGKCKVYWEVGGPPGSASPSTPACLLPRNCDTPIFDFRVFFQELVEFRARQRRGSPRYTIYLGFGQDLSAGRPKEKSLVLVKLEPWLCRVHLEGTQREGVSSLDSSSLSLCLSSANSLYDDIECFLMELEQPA
Method: protein-binding microarray
Form: double-stranded DNA, one strand shown
Matrix: in vitro
Tested at: 2200 nM top
Notes: 60-bp whole probe
Together with: salmon DNA 0.4 mg/ml
Reference: random background probes
Direction: higher = stronger binding
Shared flanks, not repeated: GCCTAGCAC … GTCTTGATTCGCTTGACGCTGCTG
Sequence	fitted relative affinity
GACGGACTCCTTTTCCTGACGTGCTAG	1.26 z-score
GACGAACTGAGTATAGAGACGTGCTAG	-0.274 z-score
GACGATATCGCGTTTCGAGACGTGCTA	1.48 z-score
TTAGGACTGGGGGTTCGGTTAGTGCTA	0.346 z-score
TCACCTGTACATCTATGACTGTGCTAG	1.23 z-score
TCAAGTTGGACCTCTCAGACTGTGCTA	-0.287 z-score
TTGGGTCTCCTACTGCTTTAGTGCTAG	0.666 z-score
TACTGGACTGGGGTTTCCCGGTGCTAG	-0.722 z-score
TCAATCGTCCCTTTGAGACTGTGCTAG	0.77 z-score
TTAGATTTCGGGTAACGATTAGTGCTA	1.8 z-score
TCACTTTTCTTTACTGAACTGTGCTAG	3.12 z-score
GACGGCCTGGACTATCGGGACGTGCTA	-1.11 z-score
TCACTTTTTGCACTCTCACTGTGCTAG	2.6 z-score

Study 4
Target: Prothrombin, mature alpha-thrombin (F2, Homo sapiens, UniProt P00734)
Method: aptamer microarray, sandwich
Form: DNA with 2'F-ANA
Matrix: in vitro
Tested at: 200 nM
Notes: whole 15-mer aptamer, many near background
Together with: Cy3 exosite-II aptamer, 400 nM
Direction: higher = stronger binding
Sequence: GGTTGGTGTGGTTGG
Modification	mean fluorescence intensity [a.u.]
2'F-ANA at 1 2 3 6 13 14 15	59.1
2'F-ANA at 1 3 4 5 7 9 10	48.3
2'F-ANA at 1 4 5 7 10 12	68.8
2'F-ANA at 5 7 8 9 10 11 13 14 15	58.3
2'F-ANA at 1 2 3 4 5 6 7 8 9 14 15	53.7
2'F-ANA at 1 4 5 7 8 9 11 12 13 14	47.7
2'F-ANA at 5 7 8 10 12 14	44.4
2'F-ANA at 2 4 7 11 12 13 14 15	111
2'F-ANA at 1 2 4 5 12 13	83.9

Study 5
Target: RING finger protein unkempt homolog, zinc fingers 1-6, GST-SBP tag (UNK, Homo sapiens, UniProt Q9C0B0, residues 30-357)
Sequence of UniProt Q9C0B0 (30-357, looked up): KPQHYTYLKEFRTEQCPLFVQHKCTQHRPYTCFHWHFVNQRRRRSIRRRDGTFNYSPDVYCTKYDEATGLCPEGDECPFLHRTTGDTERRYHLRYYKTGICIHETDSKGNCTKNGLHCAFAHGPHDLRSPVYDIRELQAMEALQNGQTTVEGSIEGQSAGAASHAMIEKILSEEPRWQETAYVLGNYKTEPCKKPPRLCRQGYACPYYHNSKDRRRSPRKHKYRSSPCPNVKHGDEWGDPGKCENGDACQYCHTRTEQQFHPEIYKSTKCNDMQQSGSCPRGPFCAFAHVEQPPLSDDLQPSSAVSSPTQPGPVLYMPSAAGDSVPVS
Method: RNA Bind-n-Seq
Form: RNA
Matrix: in vitro
Tested at: not given
Notes: RNA with constant flanks, human and mouse sites, ends assumed
Reference: input RNA pool
Direction: higher = stronger binding
Shared flanks, not repeated: GGGAGUUCUACAGUCCGACGAUC … CAACAGAGGAUUGAGCAUCA
Sequence	bound/input enrichment [ratio]
AAUGUUACUUCUAUGAUAAACUUAAAGACCAUUGCUUCAUCAGCAGAUCCUAAAAAUGUUAGUAUACCAUCUUCUGAAGCUUUAUCUUCGGAUCCUUCCUACAACAAAGAAAAACACAUU	0.635
AAGCUAUAUAUAGUGAGUUUUUCUAAAUUAAGGGAACUCUGCUUUUUUUUUUUUUUUUUAAGUAACUGGUCUGUAAGUGCAUAUCUCUAGAACGUCCCCGCAGAUGAAUGAGGGCCAGUG	6.27
AAAGUUUCAAACACUUUCACUUACGCCAGAGUACUGUAAAAUCUAUGUCUUUUCCAGCGUUAGCAUUAAGCCGGGCGCCGUUUGCCGUGUCCUUCGUUCCACGAGCCCUUUGGUUUUUAC	0.169
UGUGUGGCCAGAGCUUUCACAGGAGGAAAGCGGGCUGCUGAAUUUAGUCACUGAUCUCUAUUAGCUGUGGCCUAAGGCUAUGCUGAGGUUUAUAUCCCAUUUGUACUGUUGCAGCUCAAA	0.321
UAAGAAGAAAAACAAGUUAUAGCACUUUCAAUUUUUUUUUUUUUUUUAAAAAAAGGUUUAUAGCUUUUUCUUUUCCCAUGUCACAAUGUCCACUUCCUAAGAAGGGUUUAAAAUACUAUG	0.467

Study 6
Target: Phosphate system positive regulatory protein PHO4, full length, GST-tagged (PHO4, Saccharomyces cerevisiae, UniProt P07270, residues 1-312)
Method: competition protein-binding microarray
Form: double-stranded DNA, one strand shown
Matrix: in vitro
Tested at: 2 µM
Notes: whole 60-bp probe, lowest competitor level
Together with: Cbf1 competitor, 0.05 µM
Direction: higher = stronger binding
Shared flanks, not repeated: … GTCTTGATTCGCTTGACGCTGCTG
Target sequence (chain): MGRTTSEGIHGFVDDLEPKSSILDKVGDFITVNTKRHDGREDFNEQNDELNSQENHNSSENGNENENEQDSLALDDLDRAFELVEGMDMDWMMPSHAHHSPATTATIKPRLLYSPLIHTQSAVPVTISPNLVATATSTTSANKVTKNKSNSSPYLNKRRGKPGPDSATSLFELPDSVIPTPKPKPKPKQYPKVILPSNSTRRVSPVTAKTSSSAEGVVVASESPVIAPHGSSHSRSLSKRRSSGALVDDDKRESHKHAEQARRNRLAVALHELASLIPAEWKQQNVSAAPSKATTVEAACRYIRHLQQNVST
Sequence	fluorescence intensity
CGGGGTTAAGTTTTTCACGTGCGATGCTTGCAGCAG	12600 a.u.
AAACAAATGGCAGTCCATGTGAAAAGCTGAGACAAA	4580 a.u.
CTTTCCCGATCTTGGAGCGTGGGTGTAGCACATTTG	9190 a.u.
CGTCCTAGCGATTGACAAGTGGGTGCCATGAGGAAG	6580 a.u.
GGCAATGGTGGCCGCTGCGTGCGATGTCTGGTGTAG	9300 a.u.
ATATATATTTCATTGAATGGATATATGAAACGTTTA	4150 a.u.
CTAACGAAGGTTTTTCACGTGGTGTACAAGCCAAGT	13900 a.u.
TTAATCAATGATTTACCCGTGGGACCCAAGTCCAGT	7600 a.u.
GACAATTTGATTTATGACCTGATTCACAGAATTCGC	3050 a.u.
ATGGCTATACCGAGTCACGTTTAGGTAATTTGTTTG	8980 a.u.
AAAGCGGTAATTTGTCACCTAACTTCACATATCTAT	3360 a.u.
CATACCCAACCTTGCCAAGTGGGTGAAGATATTTGT	4220 a.u.

Study 7
Target: PABPC1L2, full length, GST fusion (mouse, UniProt A0ABA7IW68)
Method: RNAcompete
Form: RNA
Matrix: in vitro
Tested at: 20 nM
Notes: 7-mer, probes averaged, single round
Reference: mean of 7-mers
Direction: higher = stronger binding
Residues (chain): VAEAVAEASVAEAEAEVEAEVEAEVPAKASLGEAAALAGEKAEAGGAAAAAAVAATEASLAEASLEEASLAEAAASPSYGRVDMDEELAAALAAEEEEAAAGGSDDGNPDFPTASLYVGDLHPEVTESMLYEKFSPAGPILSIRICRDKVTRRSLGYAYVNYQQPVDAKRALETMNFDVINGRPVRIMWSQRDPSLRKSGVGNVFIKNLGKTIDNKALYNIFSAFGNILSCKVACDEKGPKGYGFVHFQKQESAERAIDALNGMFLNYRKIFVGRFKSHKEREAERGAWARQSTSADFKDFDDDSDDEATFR
Sequence	7-mer Z-score
UCCCUCG	-0.427
ACCAGUG	-0.05
CGUUGAC	-0.164
AACGAAA	1.39
ACCGACC	-0.108
GAUACUU	-0.0863
UUUUCUA	-0.284
ACUGCAG	0.0334
UAGGAGU	-0.22
UAGUGCG	-0.171
GCGGAGU	-0.101
GGCUUAG	-0.0047
CAUUUGU	-0.438
CUGGUAG	-0.161
GCUUUAU	-0.2

Study 8
Target: Sal-like protein 4, full length isoform A (SALL4, Homo sapiens, UniProt Q9UJQ4, residues 1-1053)
Sequence of UniProt Q9UJQ4 (whole entry, looked up): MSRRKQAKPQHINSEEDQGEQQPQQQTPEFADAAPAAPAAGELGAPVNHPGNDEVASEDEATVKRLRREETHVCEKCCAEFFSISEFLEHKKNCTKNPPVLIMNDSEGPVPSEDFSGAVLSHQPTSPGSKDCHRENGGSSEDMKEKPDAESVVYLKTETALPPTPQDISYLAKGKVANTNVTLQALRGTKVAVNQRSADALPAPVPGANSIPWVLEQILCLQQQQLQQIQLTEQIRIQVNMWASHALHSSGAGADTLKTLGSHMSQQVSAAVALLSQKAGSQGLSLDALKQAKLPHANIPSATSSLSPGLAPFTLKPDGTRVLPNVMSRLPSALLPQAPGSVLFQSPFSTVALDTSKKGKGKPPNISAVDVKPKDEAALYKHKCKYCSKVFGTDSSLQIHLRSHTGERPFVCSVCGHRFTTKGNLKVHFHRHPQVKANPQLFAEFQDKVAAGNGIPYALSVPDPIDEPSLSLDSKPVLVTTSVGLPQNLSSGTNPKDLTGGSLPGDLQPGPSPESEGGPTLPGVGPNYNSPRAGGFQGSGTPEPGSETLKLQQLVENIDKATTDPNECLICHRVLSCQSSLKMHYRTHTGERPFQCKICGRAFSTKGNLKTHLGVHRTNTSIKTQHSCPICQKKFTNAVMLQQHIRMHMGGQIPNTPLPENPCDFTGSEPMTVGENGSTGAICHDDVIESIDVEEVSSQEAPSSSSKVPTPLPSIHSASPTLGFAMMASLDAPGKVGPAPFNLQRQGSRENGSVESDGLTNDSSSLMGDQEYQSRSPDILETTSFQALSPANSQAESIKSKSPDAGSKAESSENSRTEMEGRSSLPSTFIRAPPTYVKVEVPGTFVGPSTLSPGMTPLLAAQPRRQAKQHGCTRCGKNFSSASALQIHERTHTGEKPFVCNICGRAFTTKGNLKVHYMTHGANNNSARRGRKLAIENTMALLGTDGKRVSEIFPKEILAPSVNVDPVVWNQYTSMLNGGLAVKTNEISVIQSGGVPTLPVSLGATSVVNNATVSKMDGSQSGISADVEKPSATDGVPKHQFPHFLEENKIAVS
Method: universal PBM
Form: double-stranded DNA, one strand shown
Matrix: in vitro
Tested at: 600 nM
Notes: 8-mer, flanks averaged, mean of replicates
Direction: higher = stronger binding
Sequence	E-score
AGAGTTGC	-0.0846
AATTTTCA	0.345
CCCTGCAC	-0.337
CCCAGGGG	-0.408
AGACAACT	0.107
CGGTGATA	0.0888
ACGTGTTA	0.0968
CAACCCGC	-0.297
AAACAATA	0.353
CTGGGACA	-0.19
ACGTGAGA	0.0405
CCTGGACA	-0.21

Study 9
Target: ABI1, truncated, D143A, DHFR fusion (Arabidopsis thaliana)
Method: DHFR PCA, deep sequencing
Matrix: yeast
Notes: methotrexate growth selection, single substitutions
Together with: (+)-ABA 710 µM
Reference: wild-type fitted maximum
Direction: higher = stronger binding
Starting sequence: PYL1, truncated, DHFR fusion (Arabidopsis thaliana); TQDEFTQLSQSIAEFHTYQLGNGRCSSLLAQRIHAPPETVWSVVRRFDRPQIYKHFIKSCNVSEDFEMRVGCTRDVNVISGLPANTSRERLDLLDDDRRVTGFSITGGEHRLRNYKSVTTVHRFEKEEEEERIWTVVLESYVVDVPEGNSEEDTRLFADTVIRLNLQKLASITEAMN
Substitution	relative binding score [%]
V136R	43.6
S171Y	94.1
I79Y	103
H16W	5.39
V44S	40.2
R132M	106
S140I	9.08
R49D	93.2
A175Q	96.1
T173C	104
N165T	25.9
D96G	77.5
A30P	84.7
R99V	32.8
